Published values pooled from the literature.
Numbered parts are unrelated; each lists some results of a single study. Positions count from the first letter of the parent shown.

Sample 1
Target: CCNE1, cyclin fold, Cln2 fusion (human)
Method: yeast growth competition, sequencing
Matrix: yeast
Notes: weak parent motif
Baseline: not given
Reading: higher = stronger binding
Starting sequence: PKN2 docking peptide (human); DSTVTKLDFDLEP
Variant	normalised enrichment score
F9A	-0.189
S2A	0.176
T3A	0.729
T5A	-0.011
D8A	0.18
L11A	0.129
V4A	0.0771

Sample 2
Target: ABI1, truncated, D143A, DHFR fusion (Arabidopsis thaliana)
Method: DHFR PCA, deep sequencing
Matrix: yeast
Notes: methotrexate growth selection, single substitutions
Added: (+)-ABA 0.0091 µM
Baseline: wild-type fitted maximum
Reading: higher = stronger binding
Starting sequence: PYL1, truncated, DHFR fusion (Arabidopsis thaliana); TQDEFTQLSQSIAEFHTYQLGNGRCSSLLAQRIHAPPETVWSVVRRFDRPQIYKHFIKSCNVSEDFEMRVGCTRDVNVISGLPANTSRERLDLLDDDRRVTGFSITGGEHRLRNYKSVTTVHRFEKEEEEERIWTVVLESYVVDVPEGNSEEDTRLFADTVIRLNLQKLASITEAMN
Variant	relative binding score
L28Y	-0.431%
L138P	7.46%
F103T	-7.95%
L91I	2.23%
S104L	-4.22%
T86L	20.4%
D159H	-4.82%
R132H	29.1%
R98Y	-6.53%
N149M	47.8%
S42Q	28.5%
E14V	1.66%
E139H	-12.6%
E109C	10.7%
C60W	2.67%
G21V	19.6%

Sample 3
Target: UBE2U UBC core domain (UniProt Q5VVX9)
Method: yeast two-hybrid
Matrix: yeast
Notes: mostly zero background
Baseline: not given
Reading: higher = stronger interaction
B1: RNF111 RING domain (UniProt Q6ZNA4); chain EGTEEDTEEKCTICLSILEEGEDVRRLPCMHLFHQVCVDQWLITNKKCPICRVDIEAQLPSE
B2: TRIM13 RING domain (UniProt O60858); chain MELLEEDLTCPICCSLFDDPRVLPCSHNFCKKCLEGILEGSVRNSLWRPAPFKCPTCRKETSATGINS
B3: TRIM5 RING domain (UniProt Q9C035); chain ILVNVKEEVTCPICLELLTQPLSLDCGHSFCQACLTANHKKSMLDKGESSCPVCRISYQPENIRP
B4: RC3H1 RING domain (UniProt Q5TC82); chain QAPQWTDFLSCPICTQTFDETIRKPISLGCGHTVCKMCLNKLHRKACPFDQTTINTDIELL
B5: DTX4 RING domain (UniProt Q9Y2E6); chain QKVRHPPDEDCTICMERLTAPSGYKGPQPTVKPDLVGKLSRCGHVYHIYCLVAMYNNGNKDGSLQCPTCKTIYGVKTGTQ
B6: NEURL1 RING domain (UniProt O76050); chain VTPGLGQWSDECTICYEHAVDTVIYTCGHMCLCYACGLRLKKALHACCPICRRPIKDIIKT
B7: TRAF5 RING domain (UniProt O00463); chain FVERLEERYKCAFCHSVLHNPHQTGCGHRFCQHCILSLRELNTVPICPVDKEVIKSQEVFK
B8: VPS41 RING domain (UniProt P49754); chain KGVLVDEENICESCLSPILPSDAAKPFSVVVFHCRHMFHKECLPMPSMNSAAQFCNICSAKNRGPGSAI
B9: TRIM4 RING domain (UniProt Q9C037); chain EAEDIQEELTCPICLDYFQDPVSIECGHNFCRGCLHRNWAPGGGPFPCPECRHPSAPAALRP
Residues (chain): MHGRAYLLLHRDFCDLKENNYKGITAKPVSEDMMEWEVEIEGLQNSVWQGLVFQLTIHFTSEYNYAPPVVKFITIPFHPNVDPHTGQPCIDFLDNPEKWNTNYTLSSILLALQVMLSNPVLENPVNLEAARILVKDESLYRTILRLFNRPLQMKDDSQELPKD
Molecule	lacZ reporter activity
QVDKAVFHMQSVKCLKCQEQKRAVLPCQHAALCELCAEGSECPICQPGRAHTLQS (UNK RING domain (UniProt Q9C0B0))	0
B1 (RNF111 RING domain)	0
B2 (TRIM13 RING domain)	0
VEPSEENSKDCVVCQNGTVNWVLLPCRHTCLCDGCVKYFQQCPMCRQFVQESFALC (CGRRF1 RING domain (UniProt Q99675))	16800
B3 (TRIM5 RING domain)	0
B4 (RC3H1 RING domain)	0
B5 (DTX4 RING domain)	0
B6 (NEURL1 RING domain)	12900
B7 (TRAF5 RING domain)	0
B8 (VPS41 RING domain)	9440
MPIRALCTICSDFFDHSRDVAAIHCGHTFHLQCLIQWFETAPSRTCPQCRIQVGKRTIIN (TRAIP RING domain (UniProt Q9BWF2))	15100
GAAPGPEAAECLVCSELALLVLFSPCQHRTVCEECARRMKKCIRCQVVVSKKLRPD (MIB2 RING domain (UniProt Q96AX9))	14800
B9 (TRIM4 RING domain)	0

Sample 4
Target: JUNB, bZIP domain (human)
Method: DHFR protein complementation
Matrix: yeast
Notes: single substitutions, most at no-binding floor
Baseline: wild-type JUN-FOS pair
Reading: higher = stronger binding
Starting sequence: JUN, bZIP domain (human); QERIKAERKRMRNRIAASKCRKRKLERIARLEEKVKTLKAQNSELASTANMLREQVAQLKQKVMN; partner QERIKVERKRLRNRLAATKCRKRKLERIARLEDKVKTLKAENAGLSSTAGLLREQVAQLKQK
Variant	binding fitness [natural log]
E54V	-1.34
Q55T	-1.39
R53K	-1.21
A49V	-0.0739
S43G	-1.19
M51G	-1.18
A57K	-1.1
A46N	-1.36
L45P	-1.46
I28T	-1.46
V56T	-1.53
R53Q	-1.27
E54H	-1.22
E54L	-1.34
N42S	-1.52
V56S	-1.51
M51C	-1.27
T37P	-1.49
K36I	-1.32

Sample 5
Target: Sal-like protein 4, full length isoform A (SALL4, Homo sapiens, UniProt Q9UJQ4, residues 1-1053)
UniProt Q9UJQ4, sequence (whole entry, looked up): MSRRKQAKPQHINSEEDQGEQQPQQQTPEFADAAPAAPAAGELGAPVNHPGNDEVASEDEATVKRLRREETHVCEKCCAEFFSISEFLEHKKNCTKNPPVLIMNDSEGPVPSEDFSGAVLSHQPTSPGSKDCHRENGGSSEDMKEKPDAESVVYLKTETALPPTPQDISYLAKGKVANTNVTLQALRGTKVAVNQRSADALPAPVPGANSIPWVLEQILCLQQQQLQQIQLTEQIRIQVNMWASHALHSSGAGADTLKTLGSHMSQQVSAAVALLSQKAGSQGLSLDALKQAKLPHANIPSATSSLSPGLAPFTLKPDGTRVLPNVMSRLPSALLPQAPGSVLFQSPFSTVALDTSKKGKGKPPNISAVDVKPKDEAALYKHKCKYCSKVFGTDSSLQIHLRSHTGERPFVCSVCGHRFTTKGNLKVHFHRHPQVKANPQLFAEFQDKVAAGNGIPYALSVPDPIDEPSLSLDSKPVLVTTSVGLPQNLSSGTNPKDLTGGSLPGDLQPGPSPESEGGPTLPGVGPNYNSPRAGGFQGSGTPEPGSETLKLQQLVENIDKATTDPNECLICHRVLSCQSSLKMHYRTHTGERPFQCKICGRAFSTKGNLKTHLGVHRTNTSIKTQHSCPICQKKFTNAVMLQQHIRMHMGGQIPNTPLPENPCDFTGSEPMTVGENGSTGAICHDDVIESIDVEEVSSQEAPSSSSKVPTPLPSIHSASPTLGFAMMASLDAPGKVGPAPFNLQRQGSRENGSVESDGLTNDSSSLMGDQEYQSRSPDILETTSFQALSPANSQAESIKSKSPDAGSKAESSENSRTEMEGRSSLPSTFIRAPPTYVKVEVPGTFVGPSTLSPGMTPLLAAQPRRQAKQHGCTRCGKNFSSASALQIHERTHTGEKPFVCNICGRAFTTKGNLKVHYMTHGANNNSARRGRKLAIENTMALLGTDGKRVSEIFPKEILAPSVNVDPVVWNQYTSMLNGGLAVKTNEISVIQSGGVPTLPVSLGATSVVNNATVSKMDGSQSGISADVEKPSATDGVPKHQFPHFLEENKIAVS
Method: universal PBM
Molecule type: double-stranded DNA, one strand shown
Matrix: in vitro
Concentration: 600 nM
Notes: 8-mer, flanks averaged, mean of replicates
Reading: higher = stronger binding
Oligonucleotide	E-score
GAGAACGC	-0.102
GCGTACCA	-0.139
ACACAAAC	0.114
CCCATGAC	-0.166
GCTGGGAC	-0.281
GACATGAC	-0.0698
AGTAGATC	0.11
ATGCCTCA	0.0302
CTTCTTCA	0.141
CATGGTTC	-0.108
AAGAGAAC	0.0918
CGCGTGAA	-0.113
ACCCTCGG	-0.272
AACACCTA	0.0622
CCTACTAA	-0.0205
CAGTGAGG	-0.214
CTGACTAC	-0.0572
CAATACGA	0.198
AAACGGTC	-0.145
ACCGGGCC	-0.393
ATACCATG	0.0636
CTCAAGCC	-0.28

Some of these lines once more (sample 2):
Variant	relative binding score
G21V	19.6%
N149M	47.8%
E14V	1.66%
L28Y	-0.431%
R98Y	-6.53%
C60W	2.67%
S104L	-4.22%
F103T	-7.95%
S42Q	28.5%
T86L	20.4%
L91I	2.23%
E109C	10.7%
